Results gathered from unrelated publications.
Each line is one published result; not all experiments were run side by side. ± gives the spread as reported.
U2AF2: U2AF2 148-342 (Homo sapiens, UniProt P26368)
UniProt P26368, sequence (whole entry, looked up): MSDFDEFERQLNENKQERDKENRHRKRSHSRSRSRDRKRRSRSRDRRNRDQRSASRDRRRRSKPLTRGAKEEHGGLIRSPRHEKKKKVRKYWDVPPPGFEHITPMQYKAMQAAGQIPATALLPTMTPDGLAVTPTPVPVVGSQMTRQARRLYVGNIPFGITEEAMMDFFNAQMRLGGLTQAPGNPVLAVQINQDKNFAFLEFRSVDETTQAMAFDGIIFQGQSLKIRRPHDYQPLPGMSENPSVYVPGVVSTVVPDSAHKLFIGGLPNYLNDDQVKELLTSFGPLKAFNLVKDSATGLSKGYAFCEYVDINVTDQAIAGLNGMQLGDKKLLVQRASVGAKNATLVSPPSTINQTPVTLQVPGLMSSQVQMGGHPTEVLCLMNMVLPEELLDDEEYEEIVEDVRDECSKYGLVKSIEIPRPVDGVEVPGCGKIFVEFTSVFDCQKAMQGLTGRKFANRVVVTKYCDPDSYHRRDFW
B1: enzyme F206A/H226Y (Oryctolagus cuniculus, UniProt P00178); chain GRLPPGPSPLPVLGNLLQMDRKGLLRSFLRLREKYGDVFTVYLGSRPVVVLCGTDAIREALVDQAEAFSGRGKIAVVDPIFQGYGVIFANGERWRALRRFSLATMRDFGMGKRSVEERIQEEARCLVEELRKSKGALLDNTLLFHSITSNIICSIVFGKRFDYKDPVFLRLLDLFFQSASLISSFSSQVFELFPGFLKYFPGTHRQIYRNLQEINTFIGQSVEKHRATLDPSNPRDFIDVYLLRMEKDKSDPSSEFHHQNLILTVLSLFFAGTETTSTTLRYGFLLMLKYPHVTERVQKEIEQVIGSHRPPALDDRAKMPYTDAVIHEIQRLGDLIPFGVPHTVTKDTQFRGYVIPKNTEVFPVLSSALHDPRYFETPNTFNPGHFLDANGALKRNEGFMPFSLGKRICLGEGIARTELFLFFTTILQNFSIASPVPPEDIDLTPRESGVGNVPPSYQIRFLAR
B2: enzyme (Rhodospirillum rubrum, UniProt Q2RSU5); chain MSDSNDDRPFRPFQSQYRWPGVDLLAYKEEGSAPFRSVTRQVLFSGNGLTGELRYFEVGPGGHSTLERHQHAHGVMILKGRGHAMVGRAVSAVAPYDLVTIPGWSWHQFRAPADEALGFLCMVNAERDKPQLPTEADLAMLRADDAVAAFLDGLAG
B3: enzyme (Parabacteroides distasonis, UniProt A0A7L5EB83); chain QSETNRLDSIMPVRGLAIAAPSAQKLDLFLKFVQEELAPSHFNLLILRVDWNYAYESHPELRDPTPLTREDVKKIVKVCRDNGIRIAPQINLLGHQSWAETTYALLREYPEFDETPHVDTKNYTGWPNSDGLYCKSYCPLHPEVHKIVFALVDELTDVFETQLFHAGMDEVFYIGHDSCVRCGGHDKAELYAGEVTKIQNHLASQGKRLMIWGDRLIDGKTTGIGAWEASMNNTYRAIDLIPKDVFICDWHYERAEQTAVYFAMKGFDVATCPWRKPQIALQQVDDMIHFRQHSNPEMSRHFQGIIETVWSGTDSFLEAYYNPTTYKQEVSDAVTVKKLIEKYKALENR
B4: enzyme (Methanosarcina mazei, UniProt Q8PVB1); chain MSEQRSVPLREHLLALKPCRHGGLIQETSETYGIPENEILDFSANFNPLGSPFDYPENGLNFEDIIKKSCGKLLEYPDNRYVEFREAAARFVGLGVTPQSIVPGNGSTEIVRLVVESVIEKGDKVLLPWPTFGEYEMQCRITGAEPVCPSQEEVNTLPDEVLEEAKILFICNPNNPTGKLRTREELKVLAERCREHKTLLYVDEAFIELSDPSQSVADLPAENNYVFVMRSLTKDFAIPGIRMGFGIAPPAMADILNTARLSWNLGAIANNTGIALLNIEGGIDSPYLKKAREMILKEGETLKAKIDRIRGFEAGEVNVNFILVDVSKFMLNSSELTARLAARGVLVRDCVSFHGLGKNYIRVAVRTEKENDRLIAAIGDVITEWGREQAKNELQHVIEKASEEGIGGRKTCEYYPCHFEGQNCTFCFCPFYPCENEKTGGKWIQSSRGGRVWSCVDCHLVHKKEIAQKILDCLMHEGDTDELVKVAWKEVMEPIL
B5: human AIMP1; sequence looked up; chain ANNDAVLKRLEQKGAEADQIIEYLKQQVSLLKEKAILQATLREEKKLRVENAKLKKEIEELKQELIQAEIQNGVKQIPFPSGTPLHANSMVSENVIQSTAVTTVSSGTKEQIKGGTGDEKKAKEKIEKKGEKKEKKQQSIAGSADSKPIDVSRLDLRIGCIITARKHPDADSLYVEEVDVGEIAPRTVVSGLVNHVPLEQMQNRMVILLCNLKPAKMRGVLSQAMVMCASSPEKIEILAPPNGSVPGDRITFDAFPGEPDKELNPKKKIWEQIQPDLHTNDECVATYKGVPFEVKGKGVCRAQTMSNSGIK
B6: PYCR2 R251C (Homo sapiens, UniProt Q96C36); chain MSVGFIGAGQLAYALARGFTAAGILSAHKIIASSPEMNLPTVSALRKMGVNLTRSNKETVKHSDVLFLAVKPHIIPFILDEIGADVQARHIVVSCAAGVTISSVEKKLMAFQPAPKVIRCMTNTPVVVQEGATVYATGTHALVEDGQLLEQLMSSVGFCTEVEEDLIDAVTGLSGSGPAYAFMALDALADGGVKMGLPRRLAIQLGAQALLGAAKMLLDSEQHPCQLKDNVCSPGGATIHALHFLESGGFCSLLINAVEASCIRTRELQSMADQEKISPAALKKTLLDRVKLESPTVSTLTPSSPGKLLTRSLALGGKKD
B7: bxlB (Aspergillus nidulans, UniProt Q5ATH9); chain NYPDCTTGPLSELPICDTSLSPLERAKSLVSALTLEEKINNTGHEAAGSSRLGLPAYNWWNEALHGVAEKHGVSFEESGDFSYATSFPAPIVLGAAFNDALIRRVAEIISTEARAFSNSDHAGIDYWTPNVNPFKDPRWGRGQETPGEDPLHCSRYVKEFVGGLQGDDPEKPKVVATCKHLAAYDLEEWGGVSRFEFDAKVSAVDLLEYYLPPFKTCAVDASVGAFMCSYNALNGVPACADRYLLQTVLREHWGWEGPGHWVTGDCGAVERIQTYHHYVESGPEAAAAALNAGVDLDCGTWLPSYLGEAERQGLISNETLDAALTRLYTSLVQLGYFDPAEGQPLRSLGWDDVATSEAEELAKTVAIQGTVLLKNIDWTLPLKANGTLALIGPFINFTTELQSNYAGPAKHIPTMIEAAERLGYNVLTAPGTEVNSTSTDGFDDALAIAAEADALIFFGGIDNTVEEESLDRTRIDWPGNQEELILELAELGRPLTVVQFGGGQVDDSALLASAGVGAIVWAGYPSQAGGAGVFDVLTGKAAPAGRLPITQYPKSYVDEVPMTDMNLQPGTDNPGRTYRWYEDAVLPFGFGLHYTTFNVSWAKKAFGPYDAATLARGKNPSSNIVDTFSLAVTNTGDVASDYVALVFASAPELGAQPAPIKTLVGYSRASLIKPGETRKVDVEVTVAPLTRATEDGRVVLYPGEYTLLVDVNDEYPTAKFEIKGDVQVLEKFPLSGNDSD
B8: CYP4F3 A27G/C46R/I34V/M14V/R49Q/W12G (Homo sapiens, UniProt Q08477); chain MALLLAVFLLGPVAASPWLLLLLVGGSWLLARVLAWTYTFYDNCRRLQCFPQPPKRNWFLGHLGLVTPTEQGMRVLTQLVATYPQGFKVWMGPIFPVIRFCHPNIIRSVINASAAIVPKDKVFYSFLKPWLGDGLLLSAGEKWSRHRRMLTPAFHFNILKPYMKIFNESVNIMHAKWQLLASEGSARLDMFEHISLMTLDSLQKCVFSFDSHCQEKPSEYIAAILELSALVTKRHQQILLYIDFLYYLTPDGQRFRRACRLVHDFTDAVIQERRRTLPSQGVDDFLQAKAKSKTLDFIDVLLLSKDEDGKKLSDEDIRAEADTFMFEGHDTTASGLSWVLYHLAKHPEYQERCRQEVQELLKDREPKEIEWDDLAQLPFLTMCIKESLRLHPPVPAVSRCCTQDIVLPDGRVIPKGIICLISVFGTHHNPAVWPDPEVYDPFRFDPKNIKERSPLAFIPFSAGPRNCIGQAFAMAEMKVVLGLTLLRFRVLPDHTEPRRKPELVLRAEGGLWLRVEPLS
UniProt P13393, sequence (whole entry, looked up): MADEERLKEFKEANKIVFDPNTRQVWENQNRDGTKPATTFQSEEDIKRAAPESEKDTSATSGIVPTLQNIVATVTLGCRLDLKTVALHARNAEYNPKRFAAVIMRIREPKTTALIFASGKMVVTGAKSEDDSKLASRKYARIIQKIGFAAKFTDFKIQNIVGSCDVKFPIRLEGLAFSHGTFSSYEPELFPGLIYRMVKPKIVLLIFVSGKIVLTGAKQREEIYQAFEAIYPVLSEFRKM

Substance	target or system	test	test system	setting	how to read	endpoint	value
B1 (enzyme F206A/H226Y)	CCOc1ccc2c(C(F)(F)F)cc(=O)oc2c1	steady-state kinetics	–	37 °C, together with: 7-EFC	–	kcat	0.0183 ± 0.00167 s⁻¹
B2 (enzyme)	CSCC(=O)[C@@H](O)[C@H](O)COP(=O)(O)O	steady-state kinetics	–	together with: DTT	–	kcat	7.8 s⁻¹
TGGTATAAAGATCAATCGAGAATTCCTGGTATGGATCAAGTCAATCGGTCC (dsDNA; 5'-amino-C6 primer)	SPT15 full length assumed (Saccharomyces cerevisiae, UniProt P13393)	array	double-stranded DNA, one strand shown	TBP alone	–	Kd	1.51 ± 0.08 nM
GCCUUUUUA (ssRNA)	U2AF2	sequencing of bound RNA	RNA	motif only	–	Kd	4700 nM
enzyme (Saccharina japonica, UniProt A0A097IUE3)	Nc1ncnc2c1ncn2[C@@H]1O[C@H](COP(=O)(O)OP(=O)(O)O)[C@@H](O)[C@H]1O	steady-state kinetics	–	pH 6.5, 25 °C, together with: 16 mM PEP	–	kcat	23.3 ± 0.4 s⁻¹
B3 (enzyme)	CC(=O)N[C@H]1[C@H](Oc2ccc([N+](=O)[O-])cc2)O[C@H](CO)[C@@H](O[C@@H]2O[C@H](CO)[C@H](O)[C@H](O)[C@H]2O)[C@@H]1O	steady-state kinetics	–	pH 6, 50 °C	–	kcat	23.6 ± 0.9 s⁻¹
enzyme (Pseudanabaena biceps, UniProt L8N0N6)	NC(=O)c1ccc[n+]([C@@H]2O[C@H](COP(=O)(O)OP(=O)(O)OC[C@H]3O[C@@H](n4cnc5c(N)ncnc54)[C@H](O)[C@@H]3O)[C@@H](O)[C@H]2O)c1	steady-state kinetics	–	pH 7.4, 30 °C, apparent, cofactor varied	–	kcat	6.32 ± 0.6 s⁻¹
B4 (enzyme)	Nc1ncnc2c1ncn2[C@@H]1O[C@H](COP(=O)(O)OP(=O)(O)OP(=O)(O)O)[C@@H](O)[C@H]1O	steady-state kinetics	–	pH 8.5, 25 °C, apparent, anoxic, together with: L-Thr 10 mM	–	kcat	0.036 ± 0.001 s⁻¹
B5 (human AIMP1)	CYB5R4 knockout human cells	PP4 interaction, 3xFLAG-PP4C IP-MS	–	concentration not given	baseline: CYB5R4 KO over parental	log2 fold change	-0.22
GUAAUUCCU (ssRNA)	U2AF2	sequencing of bound RNA	RNA	motif only	–	Kd	1950 nM
spectrin beta, erythrocytic (human)	CYB5R4 knockout human cells	PP4 interaction, 3xFLAG-PP4C IP-MS	–	concentration not given	baseline: CYB5R4 KO over parental	log2 fold change	-1.71
acsA D449E/I222V (Pseudomonas chlororaphis)	CCCC(=O)O	steady-state kinetics	–	pH 7	–	kcat	0.1683 ± 0.00167 s⁻¹
B6 (PYCR2 R251C)	O=C(O)[C@@H]1CCC=N1	steady-state kinetics	–	pH 7.5, 37 °C, apparent, together with: NADH 500 µM	–	kcat	3.2 ± 0.3 s⁻¹
B7 (bxlB)	O=[N+]([O-])c1ccc(O[C@@H]2OC[C@@H](O)[C@H](O)[C@H]2O)cc1	steady-state kinetics	–	pH 5, 50 °C	–	kcat	15.2 s⁻¹
B8	CCCCC/C=C\C[C@@H](O)/C=C/C=C/C=C\[C@@H](O)CCCC(=O)O	steady-state kinetics	–	pH 7.4, together with: LTB4	–	kcat	0.00317 s⁻¹

Repeated from above:
Substance	target or system	test	test system	setting	how to read	endpoint	value
B3 (enzyme)	CC(=O)N[C@H]1[C@H](Oc2ccc([N+](=O)[O-])cc2)O[C@H](CO)[C@@H](O[C@@H]2O[C@H](CO)[C@H](O)[C@H](O)[C@H]2O)[C@@H]1O	steady-state kinetics	–	pH 6, 50 °C	–	kcat	23.6 ± 0.9 s⁻¹
B8	CCCCC/C=C\C[C@@H](O)/C=C/C=C/C=C\[C@@H](O)CCCC(=O)O	steady-state kinetics	–	pH 7.4, together with: LTB4	–	kcat	0.00317 s⁻¹
